Assay results from different studies.
Protocols differ between the studies behind these lines. ± gives the spread as reported.

With `N=C(N)NCCC[C@@H]1NC(=O)[C@H](CCCCNC(=O)CNC(=O)CNC(=O)CNC(=O)CC[C@H](NC(=O)CNC(=O)CNC(=O)CNC(=O)CN2CCN(CC(=O)O)CCN(CC(=O)O)CCN(CC(=O)O)CC2)C(=O)NCC(=O)NCC(=O)NCC(=O)NCCCC[C@@H]2NC(=O)[C@@H](Cc3ccccc3)NC(=O)[C@H](CC(=O)O)NC(=O)CNC(=O)[C@H](CCCNC(=N)N)NC2=O)NC(=O)[C@@H](Cc2ccccc2)NC(=O)[C@H](CC(=O)O)NC(=O)CNC1=O` [indium-111 labelled] the tissue uptake was 0.51 ± 0.04 %ID/g (female athymic nu/nu mice, eyes; intravenous, 4 h).
`CC(C)C[C@H](NC(=O)[C@@H](CCCCNC(=O)CCCCCNC(=O)CN1CCN(CC(=O)O)CCN(CC(=O)O)CCN(CC(=O)O)CC1)NC(=O)[C@H](Cc1ccc(O)cc1)NC(=O)[C@H](CO)NC(=O)[C@H](Cc1c[nH]c2ccccc12)NC(=O)[C@H](Cc1cnc[nH]1)NC(=O)[C@@H]1CCC(=O)N1)C(=O)N[C@@H](CCCNC(=N)N)C(=O)N1CCC[C@H]1C(=O)NCC(N)=O` [indium-111 labelled] gave a tissue uptake of 0.77 ± 0.06 %ID/g (female athymic nude mouse, liver; intravenous, 0.037 MBq, 2 h).
With `CC(C)C[C@H](NC(=O)[C@H](Cc1ccc(O)cc1)NC(=O)[C@@H](CCCNC(=N)N)NC(=O)[C@@H](CO)NC(=O)[C@H](Cc1ccccc1)NC(=O)[C@H](CC1CCCCC1)NC(=O)[C@H](CC(=O)O)NC(=O)CN1CCCN2CCN(CCCN(CC(=O)O)CC2)CC1)C(=O)N[C@@H](Cc1c[nH]c2ccccc12)C(=O)N[C@@H](CO)C(=O)O` [copper-64 labelled] the tissue uptake was 2.1 ± 0.4 %ID/g (female NMRI nude mice, intestine; 22 h p.i.).
`CCCC[C@H](NC(=O)CNC(=O)CNC(=O)CN1CCN(CC(=O)O)CCN(CC(=O)O)CCN(CC(=O)O)CC1)C(=O)N[C@H]1CC(=O)NCCCC[C@@H](C(N)=O)NC(=O)[C@H](Cc2c[nH]c3ccccc23)NC(=O)[C@H](CCCNC(=N)N)NC(=O)[C@@H](Cc2ccccc2)NC(=O)[C@H](Cc2c[nH]cn2)NC1=O` [lutetium-177 labelled] gave a tissue uptake of 0.18 ± 0.24 %ID/g (C57 mouse, female, bone; intravenous, 0.037 MBq, 24 h).
`CCCC[C@H](NC(=O)COCCOCCNC(=O)CN1CCN(CC(=O)O)CCN(CC(=O)O)CC1)C(=O)N[C@H]1CC(=O)NCCCC[C@@H](C(N)=O)NC(=O)[C@H](Cc2c[nH]c3ccccc23)NC(=O)[C@H](CCCNC(=N)N)NC(=O)[C@@H](Cc2ccccc2)NC(=O)[C@H](Cc2c[nH]cn2)NC1=O` [copper-64 labelled] gave a tissue uptake of 1.94 ± 0.26 %ID/g (C57 mice, liver; intravenous, 0.37 MBq, 2 h).
For `N=C(N)NCCC[C@@H]1NC(=O)[C@H](CCCCNC(=O)CC[C@H](NC(=O)CC[C@H](NC(=O)CN2CCN(CC(=O)O)CCN(CC(=O)O)CCN(CC(=O)O)CC2)C(=O)N[C@@H](CCC(=O)NCCCC[C@@H]2NC(=O)[C@@H](Cc3ccccc3)NC(=O)[C@H](CC(=O)O)NC(=O)CNC(=O)[C@H](CCCNC(=N)N)NC2=O)C(=O)NCCCC[C@@H]2NC(=O)[C@@H](Cc3ccccc3)NC(=O)[C@H](CC(=O)O)NC(=O)CNC(=O)[C@H](CCCNC(=N)N)NC2=O)C(=O)NCCCC[C@@H]2NC(=O)[C@@H](Cc3ccccc3)NC(=O)[C@H](CC(=O)O)NC(=O)CNC(=O)[C@H](CCCNC(=N)N)NC2=O)NC(=O)[C@@H](Cc2ccccc2)NC(=O)[C@H](CC(=O)O)NC(=O)CNC1=O` [indium-111 labelled], the tissue uptake was 0.37 ± 0.08 %ID/g (female athymic nu/nu mice, blood; intravenous, 1 h).
`CCCC[C@H](NC(=O)CNC(=O)CNC(=O)CN1CCN(CC(=O)O)CCN(CC(=O)O)CC1)C(=O)N[C@H]1CC(=O)NCCCC[C@@H](C(N)=O)NC(=O)[C@H](Cc2c[nH]c3ccccc23)NC(=O)[C@H](CCCNC(=N)N)NC(=O)[C@@H](Cc2ccccc2)NC(=O)[C@H](Cc2c[nH]cn2)NC1=O` [technetium-99m labelled] gave a tissue uptake of 0.25 ± 0.06 %ID/g (C57 mouse, stomach; iv, 0.037 MBq, 4 h).
`CCCC[C@H](NC(=O)CCCCCCCNC(=O)CN1CCN(CC(=O)O)CCN(CC(=O)O)CC1)C(=O)N[C@H]1CC(=O)NCCCC[C@@H](C(N)=O)NC(=O)[C@H](Cc2c[nH]c3ccccc23)NC(=O)[C@H](CCCNC(=N)N)NC(=O)[C@@H](Cc2ccccc2)NC(=O)[C@H](Cc2c[nH]cn2)NC1=O` [copper-64 labelled] gave a tissue uptake of 3.42 ± 0.58 %ID/g (C57 mice, liver; intravenous, 0.37 MBq, 0.5 h).

Some of these lines once more:
For `N=C(N)NCCC[C@@H]1NC(=O)[C@H](CCCCNC(=O)CC[C@H](NC(=O)CC[C@H](NC(=O)CN2CCN(CC(=O)O)CCN(CC(=O)O)CCN(CC(=O)O)CC2)C(=O)N[C@@H](CCC(=O)NCCCC[C@@H]2NC(=O)[C@@H](Cc3ccccc3)NC(=O)[C@H](CC(=O)O)NC(=O)CNC(=O)[C@H](CCCNC(=N)N)NC2=O)C(=O)NCCCC[C@@H]2NC(=O)[C@@H](Cc3ccccc3)NC(=O)[C@H](CC(=O)O)NC(=O)CNC(=O)[C@H](CCCNC(=N)N)NC2=O)C(=O)NCCCC[C@@H]2NC(=O)[C@@H](Cc3ccccc3)NC(=O)[C@H](CC(=O)O)NC(=O)CNC(=O)[C@H](CCCNC(=N)N)NC2=O)NC(=O)[C@@H](Cc2ccccc2)NC(=O)[C@H](CC(=O)O)NC(=O)CNC1=O` [indium-111 labelled], the tissue uptake was 0.37 ± 0.08 %ID/g (female athymic nu/nu mice, blood; intravenous, 1 h).
